# Experimental data of several laboratories.
# Compare with care: the assays were run in different laboratories. Numbers after ± are the reported error.
SMILES,tested on,assay,test system,setting,scale,endpoint,result
O=C(C[Se]C(=O)c1ccco1)Nc1cccc(C(F)(F)F)c1,"NCI60 prostate subpanel (PC-3, DU-145)",cell growth,,"10 µM, 48 h, one-dose",,mean growth percent,-13%
CC(C)(C)C(=O)OCOP(=O)(OCOC(=O)C(C)(C)C)C1CCCN(O)C1=O (stereo not shown),OVCAR-8,,,,,log TGI,-5.05 log M
O=C(C[Se]C(=O)c1ccc2ccccc2c1)Nc1cccc(C(F)(F)F)c1,"NCI60 prostate subpanel (PC-3, DU-145)","cytotoxicity, inhibitor",,five-dose,,CC50,7.05 µM
CC(C)C[C@H](NC(=O)[C@H](CC(=O)O)NC(=O)CNC(=O)[C@@H](N)CCCNC(=N)N)C(=O)N[C@@H](C)C(=O)N[C@H](C(=O)N[C@@H](CC(C)C)C(=O)N[C@@H](CCCNC(=N)N)C(=O)N[C@@H](CCC(N)=O)C(=O)N[C@@H](CC(C)C)C(=O)N[C@@H](C)C(=O)N[C@@H](CCC(N)=O)C(=O)N[C@@H](CCC(=O)O)C(=O)N[C@@H](CC(=O)O)C(=O)NCC(=O)N[C@H](C(=O)N[C@H](C(=O)NCC(=O)N[C@H](C(=O)N[C@@H](CCCNC(=N)N)C(=O)NCCOCCOCCOCCOCCOCCOCCOCCOCCOCCOCCOCCOCCC(=O)N[C@@H](CS)C(N)=O)C(C)C)C(C)C)C(C)C)[C@@H](C)O,HCC15,phage binding,,,reference: targeting over control phage,selectivity ratio,1 ± 0.51
O=C(C[Se]C(=O)c1ccccc1)Nc1cccc(C(F)(F)F)c1,NCI60 ovarian subpanel,cell growth,,"10 µM, 48 h, one-dose",,mean growth percent,-70.2%
CSCC[C@H](NC(=O)[C@@H](NC(=O)[C@H](CCC(N)=O)NC(=O)[C@H](CO)NC(=O)[C@@H](N)C(C)C)[C@@H](C)O)C(=O)N[C@@H](CCCNC(=N)N)C(=O)N[C@@H](CCC(N)=O)C(=O)N[C@H](C(=O)N[C@@H](C)C(=O)N[C@H](C(=O)N1CCC[C@H]1C(=O)N[C@@H](CC(C)C)C(=O)N[C@@H](CC(C)C)C(=O)N[C@@H](Cc1c[nH]c2ccccc12)C(=O)N[C@@H](Cc1ccccc1)C(=O)N[C@@H](Cc1c[nH]c2ccccc12)C(=O)N[C@H](C(=O)NCC(=O)N[C@@H](CO)C(=O)N[C@@H](CC(C)C)C(=O)NCCOCCOCCOCCOCCOCCOCCOCCOCCOCCOCCOCCOCCC(=O)N[C@@H](CS)C(N)=O)[C@@H](C)O)C(C)C)[C@@H](C)O,H1264 lung adenocarcinoma,"cell binding, phage binding, measured: output/input phage",,"10 min, 37 °C",reference: control phage,selectivity ratio,2.6 ± 0.69
O=C(C[Se]C(=O)c1cc2ccccc2s1)Nc1cccc(C(F)(F)F)c1,NCI60 renal subpanel,"cytotoxicity, inhibitor",,five-dose,,CC50,6.24 µM
O=C(O)c1ccc(-c2nc(-c3ccccc3Cl)c3sccn23)cc1,HEL,flow cytometry,,0.1 mM,,CD61-positive cells,78.1%
COc1ccccc1-c1ccncc1C(=O)Nc1nnc(OCc2ccc(Cl)cc2)s1,HCT116 BRCA2-/-,,,"2 µM, average of 3 runs",reference: untreated,colony survival,40.4%
CC(=O)NCSC[C@H](NC(=O)[C@@H]1CCCN1C(=O)[C@H](C)NC(=O)[C@@H](NC(=O)CNC(=O)[C@@H](NC(=O)[C@H](Cc1c[nH]c2ccccc12)NC(=O)[C@H](C)NC(=O)CNC(=O)[C@H](CO)NC(=O)[C@H](C)NC(=O)[C@@H]1CCCN1C(=O)[C@H](Cc1c[nH]c2ccccc12)NC(=O)[C@H](C)NC(=O)[C@H](C)NC(=O)[C@@H](N)Cc1ccc(O)cc1)[C@@H](C)O)[C@@H](C)O)C(=O)N[C@@H](CO)C(=O)N[C@@H](C)C(=O)NCC(=O)N[C@H](C(=O)NCCOCCOCCOCCOCCOCCOCCOCCOCCOCCOCCOCCOCCC(=O)N[C@@H](CS)C(N)=O)[C@@H](C)O,T47D breast cancer,"cell binding, phage binding, measured: output/input phage",,"10 min, 37 °C",reference: control phage,selectivity ratio,12 ± 2.3
Cc1cc(Oc2nc(N3CC[C@@H](c4ccncc4)C3)ncc2F)[nH]n1,SK-N-SH,cell proliferation,,,,IC50,> 100 µM
CC(C)[C@H](NC(=O)[C@H](CCCNC(=N)N)NC(=O)[C@@H]1CCCN1C(=O)[C@@H](NC(=O)[C@H](C)NC(=O)[C@H](Cc1ccc(O)cc1)NC(=O)[C@H](CCC(N)=O)NC(=O)[C@H](CCCCN)NC(=O)[C@H](CCCNC(=N)N)NC(=O)[C@@H]1CCCN1C(=O)[C@H](CCC(=O)O)NC(=O)[C@@H](NC(=O)[C@H](C)N)[C@@H](C)O)[C@@H](C)O)C(=O)N[C@@H](Cc1ccccc1)C(=O)N[C@@H](Cc1c[nH]c2ccccc12)C(=O)N[C@H](C(=O)N[C@@H](CC(=O)O)C(=O)N[C@@H](C)C(=O)N1CCC[C@H]1C(=O)NCC(=O)NCCOCCOCCOCCOCCOCCOCCOCCOCCOCCOCCOCCOCCC(=O)N[C@@H](CS)C(N)=O)[C@@H](C)O,H1666 lung adenocarcinoma,"cell binding, phage binding, measured: output/input phage",,"10 min, 37 °C",reference: control phage,selectivity ratio,0.42 ± 0.092
O=C1NC2(CC2)COc2ncc(F)cc2[C@H]2COCCN2c2ccn3ncc1c3n2,,,"Sprague-Dawley rats, female, blood","oral, 10 mg/kg/day, end of recovery, 4-week subacute toxicity",,APTT,14.8 ± 1.7 s
